Published values pooled from the literature.
Protocols differ between the studies behind these lines. ± marks the error that the study gave.
B1: enzyme E416A (Streptomyces platensis, UniProt A0A0A0V031); chain MQHTTIGDVLREHRRSHPGRTALVDGPVRLTWPELDDRVNRLAGSLAASGIGRGDRIMWLGQNSFRVYELIAAAGKLGAMVCVGYWRWAPPEMEFALRDFDPHLVVWQHQEIHETVARTREALGSDDTARWLRHDSAPQDPDGYEAFLAAGGLADPDLDIDPDSPVLVLYTAAMSGRQCGSLLSHTNLIAMATAAAWLGDIDHTTAFLNSGPMFHIGNHQFWGMPTLLMAGKNVIVRRVVAEEVRDLLVAEECTHAFLMPPTVAEIVRLNRDTGHDLSRLRATVAPHLWEGMATTDTSRFTRSGAAAGRGYGQTELSGFAVTAAYGGPAAGNAGRPGPGLTVRVLDTAGRECAVGEAGEICARGTVVHRGYWNRDEVNAHRFRSGWWHTTDLGRREPDGSLTFLGTTTRMLKSAAANIFPAEVENCIEQHPAVREAAVIGVPNTRWAQDVKAVVVLEPDAGVSEQEIIDHCRPRIASYKKPKSVAFAAALPRTVSGARDYDALDKEYGGGGYPGAATLGPGR
B2: enzyme A497K (Streptomyces platensis, UniProt A0A0A0V031); chain MQHTTIGDVLREHRRSHPGRTALVDGPVRLTWPELDDRVNRLAGSLAASGIGRGDRIMWLGQNSFRVYELIAAAGKLGAMVCVGYWRWAPPEMEFALRDFDPHLVVWQHQEIHETVARTREALGSDDTARWLRHDSAPQDPDGYEAFLAAGGLADPDLDIDPDSPVLVLYTAAMSGRQCGSLLSHTNLIAMATAAAWLGDIDHTTAFLNSGPMFHIGNHQFWGMPTLLMAGKNVIVRRVVAEEVRDLLVAEECTHAFLMPPTVAEIVRLNRDTGHDLSRLRATVAPHLWEGMATTDTSRFTRSGAAAGRGYGQTELSGFAVTAAYGGPAAGNAGRPGPGLTVRVLDTAGRECAVGEAGEICARGTVVHRGYWNRDEVNAHRFRSGWWHTTDLGRREPDGSLTFLGTTTRMLKSAAENIFPAEVENCIEQHPAVREAAVIGVPNTRWAQDVKAVVVLEPDAGVSEQEIIDHCRPRIASYKKPKSVAFAAALPRTVSGKRDYDALDKEYGGGGYPGAATLGPGR
Sequence of UniProt Q50EL0 (whole entry, looked up): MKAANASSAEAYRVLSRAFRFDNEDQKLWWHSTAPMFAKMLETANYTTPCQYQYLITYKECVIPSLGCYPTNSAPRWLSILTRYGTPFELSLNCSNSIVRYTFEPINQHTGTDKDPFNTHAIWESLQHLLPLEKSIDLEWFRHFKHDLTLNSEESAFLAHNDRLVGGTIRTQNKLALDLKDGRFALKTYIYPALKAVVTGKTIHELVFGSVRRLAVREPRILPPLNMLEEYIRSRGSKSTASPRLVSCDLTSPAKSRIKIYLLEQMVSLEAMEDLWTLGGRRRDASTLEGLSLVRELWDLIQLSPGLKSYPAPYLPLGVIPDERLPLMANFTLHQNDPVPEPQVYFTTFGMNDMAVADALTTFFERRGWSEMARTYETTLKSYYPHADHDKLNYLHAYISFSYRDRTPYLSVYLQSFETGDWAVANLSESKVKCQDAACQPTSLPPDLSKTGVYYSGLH
Sequence of UniProt P21729 (whole entry, looked up): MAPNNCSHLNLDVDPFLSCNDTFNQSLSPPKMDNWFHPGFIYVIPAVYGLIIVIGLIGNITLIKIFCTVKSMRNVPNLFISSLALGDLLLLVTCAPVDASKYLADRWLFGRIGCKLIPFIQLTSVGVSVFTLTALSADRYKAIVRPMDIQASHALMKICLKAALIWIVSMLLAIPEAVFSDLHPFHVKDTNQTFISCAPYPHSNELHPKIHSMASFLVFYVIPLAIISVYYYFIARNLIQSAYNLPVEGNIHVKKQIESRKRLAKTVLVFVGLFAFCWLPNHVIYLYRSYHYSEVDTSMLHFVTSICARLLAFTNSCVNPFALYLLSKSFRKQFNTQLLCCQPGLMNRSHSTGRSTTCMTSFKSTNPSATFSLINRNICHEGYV

Molecule = CN[C@](C)(C[18F])C(=O)O; target or system = A549 tumour model; test system = host not given, lung; conditions = 2 h, tumour-bearing; endpoint = tracer uptake; result = 1.1 %ID/g
Molecule = dmaW (Aspergillus fumigatus, UniProt Q50EL0); target or system = O=P(O)(O)OP(=O)(O)OCC1=CCCCC1; test = steady-state kinetics; conditions = pH 7.5, 35 °C; endpoint = kcat/Km; result = 16.7 ± 1.67 M⁻¹ s⁻¹
Molecule = B1 (enzyme E416A); target or system = C[C@@]12CCC[C@@](C)(C(=O)OP(=O)(O)OC[C@H]3O[C@@H](n4cnc5c(N)ncnc54)[C@H](O)[C@@H]3O)[C@H]1C[C@@H](O)[C@]13C[C@H]4C[C@H](O[C@@]4(C)C1)[C@@H]23; test = steady-state kinetics; conditions = pH 7.8, 25 °C; endpoint = kcat; result = 0.21 s⁻¹
Molecule = C=Cc1c(C)c2cc3nc(c4c5[nH]c(cc6nc(cc1[nH]2)C(C)=C6CC)c(C)c5C(=O)C4)[C@@H](CCC(=O)NCC(=O)N1CCC[C@H]1C(=O)N[C@@H](CC(C)C)C(=O)NCC(=O)N[C@@H](Cc1ccccc1)C(=O)N[C@@H](CCCNC(=N)N)C(=O)N[C@H](C(=O)NCC(=O)N[C@@H](CCCCN)C(N)=O)C(C)C)[C@@H]3C; target or system = OA patient chondrocytes; test = flow cytometry, item: cellular uptake; conditions = 1 µM, 6 h; endpoint = fluorescent cells; result = 80%
Molecule = B2 (enzyme A497K); target or system = C[C@@]12CCC[C@@](C)(C(=O)OP(=O)(O)OC[C@H]3O[C@@H](n4cnc5c(N)ncnc54)[C@H](O)[C@@H]3O)[C@H]1C[C@@H](O)[C@]13C[C@H]4C[C@H](O[C@@]4(C)C1)[C@@H]23; test = steady-state kinetics; conditions = pH 7.8, 25 °C; endpoint = kcat; result = 26 s⁻¹
Molecule = N=C(N)NCCC[C@@H]1NC(=O)[C@H](CCCCNC(=O)CCOCCOCCOCCOCCNC(=O)CN2CCN(CC(=O)O)CCN(CC(=O)O)CCN(CC(=O)O)CC2)NC(=O)[C@@H](Cc2ccccc2)NC(=O)[C@H](CC(=O)O)NC(=O)CNC1=O [indium-111 labelled]; test system = athymic nude mice, female, U-87 MG glioma xenograft, tumour and heart; conditions = intravenous, 0.5 h; scale = baseline: tumour over heart; endpoint = tumour to tissue ratio; result = 2.06 ± 0.32
Molecule = C[C@H]1COc2c(N3CCN(C)CC3)c(F)cc3c(=O)c(C(=O)N[C@@H](CCCNC(=N)N)C(=O)N[C@@H](Cc4ccc(-c5ccccc5)cc4)C(=O)N[C@@H](CCCNC(=N)N)C(=O)N[C@@H](Cc4ccc(-c5ccccc5)cc4)C(=O)N[C@@H](CCCNC(=N)N)C(N)=O)cn1c23; target or system = human erythrocytes; conditions = 100 µM, 1 h, 37 °C; scale = baseline: Triton X-100; endpoint = hemolysis; result = 2.7 ± 0.004%
Molecule = N=C(N)NCCC[C@@H]1NC(=O)[C@H](CCCCNC(=O)CC[C@H](NC(=O)CCOCCOCCOCCOCCNC(=O)CN2CCN(CC(=O)O)CCN(CC(=O)O)CCN(CC(=O)O)CC2)C(=O)NCCCC[C@@H]2NC(=O)[C@@H](Cc3ccccc3)NC(=O)[C@H](CC(=O)O)NC(=O)CNC(=O)[C@H](CCCNC(=N)N)NC2=O)NC(=O)[C@@H](Cc2ccccc2)NC(=O)[C@H](CC(=O)O)NC(=O)CNC1=O [indium-111 labelled]; test system = female athymic nude mice, heart; conditions = intravenous, 3 µCi, 0.5 h, U-87 MG glioma xenograft; endpoint = tissue uptake; result = 1.03 ± 0.26 %ID/g
Molecule = CCCNC(=O)[C@H](CC(C)C)NC(=O)[C@H](Cc1c[nH]cn1)NC(=O)CNC(=O)[C@@H](NC(=O)[C@H](C)NC(=O)[C@H](Cc1c[nH]c2ccccc12)NC(=O)[C@H](CCC(N)=O)NC(=O)[C@@H](Cc1ccccc1)NC(=O)CCCCCNC(=O)CN1CCN(CC(=O)O)CCN(CC(=O)O)CCN(CC(=O)O)CC1)C(C)C [indium-111 labelled]; target or system = Gastrin-releasing peptide receptor (Mus musculus, UniProt P21729); test = biodistribution; test system = CF-1 mice, pancreas; conditions = intravenous, 1 h, unblocked; endpoint = tissue uptake; result = 2.04 ± 0.17 %ID/g
Molecule = CCCC[C@H](NC(=O)CNC(=O)CNC(=O)c1ccc(NN)nc1)C(=O)N[C@H]1CC(=O)NCCCC[C@@H](C(N)=O)NC(=O)[C@H](Cc2c[nH]c3ccccc23)NC(=O)[C@H](CCCNC(=N)N)NC(=O)[C@@H](Cc2ccccc2)NC(=O)[C@H](Cc2c[nH]cn2)NC1=O [technetium-99m labelled]; test system = C57 mouse, B16/F1 melanoma-bearing, liver; conditions = intravenous, 24 h; endpoint = tissue uptake; result = 0.16 ± 0.02 %ID/g
Molecule = N=C(N)NCCC[C@@H]1NC(=O)[C@H](CCCCNC(=O)CCOCCOCCOCCOCCNC(=O)CC[C@H](NC(=O)CCOCCOCCOCCOCCNC(=O)CC[C@H](NC(=O)CN2CCN(CC(=O)O)CCN(CC(=O)O)CCN(CC(=O)O)CC2)C(=O)NCCOCCOCCOCCOCCC(=O)N[C@@H](CCC(=O)NCCOCCOCCOCCOCCC(=O)NCCCC[C@@H]2NC(=O)[C@@H](Cc3ccccc3)NC(=O)[C@H](CC(=O)O)NC(=O)CNC(=O)[C@H](CCCNC(=N)N)NC2=O)C(=O)NCCOCCOCCOCCOCCC(=O)NCCCC[C@@H]2NC(=O)[C@@H](Cc3ccccc3)NC(=O)[C@H](CC(=O)O)NC(=O)CNC(=O)[C@H](CCCNC(=N)N)NC2=O)C(=O)NCCOCCOCCOCCOCCC(=O)NCCCC[C@@H]2NC(=O)[C@@H](Cc3ccccc3)NC(=O)[C@H](CC(=O)O)NC(=O)CNC(=O)[C@H](CCCNC(=N)N)NC2=O)NC(=O)[C@@H](Cc2ccccc2)NC(=O)[C@H](CC(=O)O)NC(=O)CNC1=O [indium-111 labelled]; test system = athymic nude mice, female, U-87 MG glioma xenograft, tumour and muscle; conditions = intravenous, 1 h; scale = baseline: tumour over muscle; endpoint = tumour to tissue ratio; result = 10.9 ± 2.51

For quick reference, copied from above:
Molecule = CCCNC(=O)[C@H](CC(C)C)NC(=O)[C@H](Cc1c[nH]cn1)NC(=O)CNC(=O)[C@@H](NC(=O)[C@H](C)NC(=O)[C@H](Cc1c[nH]c2ccccc12)NC(=O)[C@H](CCC(N)=O)NC(=O)[C@@H](Cc1ccccc1)NC(=O)CCCCCNC(=O)CN1CCN(CC(=O)O)CCN(CC(=O)O)CCN(CC(=O)O)CC1)C(C)C [indium-111 labelled]; target or system = Gastrin-releasing peptide receptor (Mus musculus, UniProt P21729); test = biodistribution; test system = CF-1 mice, pancreas; conditions = intravenous, 1 h, unblocked; endpoint = tissue uptake; result = 2.04 ± 0.17 %ID/g
